Assay results collected from several papers.
Every numbered part comes from another study and shows a few of its results, in no order. Changes are numbered by the printed parent chain.

Block 1
Target: CREBL2, bZIP domain (human)
Method: DHFR protein complementation
Sample: yeast
Notes: single substitutions, most at no-binding floor
Reference: wild-type JUN-FOS pair
Reading: higher = stronger binding
Starting sequence: JUN, bZIP domain (human); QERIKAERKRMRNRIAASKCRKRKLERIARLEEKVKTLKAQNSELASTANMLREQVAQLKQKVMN; partner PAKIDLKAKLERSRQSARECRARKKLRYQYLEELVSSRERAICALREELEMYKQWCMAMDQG
| Change | binding fitness |
| --- | --- |
| S47K | -1.32 natural log |
| T48K | -1.51 natural log |
| A57R | -1.09 natural log |
| Q58P | -1.47 natural log |
| R53A | -1.53 natural log |
| E44W | -1.44 natural log |
| L31M | -1.48 natural log |
| A49F | -1.24 natural log |
| M51R | -1.37 natural log |
| S47L | -1.53 natural log |
| L45S | -1.57 natural log |
| A29T | -1.45 natural log |
| M51A | -1.41 natural log |
| A40G | -1.53 natural log |
| E32Q | -1.37 natural log |
| E54W | -1.47 natural log |
| T48A | -1.32 natural log |

Block 2
Target: ABI1, truncated, D143A, DHFR fusion (Arabidopsis thaliana, UniProt P49597)
Method: DHFR PCA, dose-response
Sample: yeast
Notes: Hill fit, not affinity, not high confidence
Together with: (+)-ABA, dose series
Reading: lower = more sensitive
Starting sequence: PYL1, truncated, DHFR fusion (Arabidopsis thaliana, UniProt Q8VZS8); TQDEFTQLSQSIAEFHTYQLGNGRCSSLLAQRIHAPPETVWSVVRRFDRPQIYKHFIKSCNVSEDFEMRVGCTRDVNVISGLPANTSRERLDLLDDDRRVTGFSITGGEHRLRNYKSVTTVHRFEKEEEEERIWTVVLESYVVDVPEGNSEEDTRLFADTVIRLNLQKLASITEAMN
| Change | ABA EC50 |
| --- | --- |
| T119Y | 956 µM |
| R74Q | 31 µM |
| Q51P | 531 µM |
| E89P | 0.0632 µM |
| V121D | 426 µM |
| A84T | 272 µM |
| L169I | 182 µM |
| G108I | 1640 µM |
| G102I | 197 µM |
| L138N | 1790 µM |
| H16E | 1050 µM |
| R74D | 56.3 µM |
| E89F | 1810 µM |
| L91R | 85.1 µM |
| R45D | 7.7 µM |
| A35F | 636 µM |
| L112P | 101 µM |
| F47R | 12.3 µM |
| G81Y | 1500 µM |
| V161R | 2.48 µM |
| A158R | 15 µM |
| R74M | 0.377 µM |
| N177P | 90.6 µM |

Block 3
Target: Histone acetyltransferase KAT6A, winged helix 1, GST fusion (KAT6A, Homo sapiens, UniProt Q92794, residues 1-85)
Method: protein binding microarray
Molecule type: double-stranded DNA, one strand shown
Sample: in vitro
Tested at: not given
Notes: 8-mer, flanks averaged, mean of 2 arrays, mostly near background
Reference: not given
Reading: higher = stronger binding
Target sequence (chain): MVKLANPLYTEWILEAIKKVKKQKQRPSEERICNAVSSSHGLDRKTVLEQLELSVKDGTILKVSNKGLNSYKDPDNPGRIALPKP
| Oligonucleotide | E-score |
| --- | --- |
| CCTATCGA | -0.193 |
| ACGTACGT | -0.112 |
| CACTAACG | 0.142 |
| AGGGAGCG | 0.157 |
| GCCCCGAC | 0.247 |
| CAGCCTAA | -0.191 |
| CGCCGAAC | 0.341 |
| CCGTAGAC | 0.235 |
| AGTGGCGG | 0.219 |
| ATTAGTAG | -0.12 |
| AAATTTCG | -0.036 |
| ACGGCTCG | 0.35 |
| ACCAGCAA | -0.113 |
| GCTCCAAA | -0.17 |
| AGACCTGC | -0.155 |
| ATATTGAG | -0.0355 |
| AGGCTCTC | 0.00451 |
| CGCAGGCC | 0.22 |
| CTCGCTAA | 0.0606 |
| CGTCATGC | 0.209 |
| ATCTAATG | -0.0884 |

Block 4
Target: RNA binding protein fox-1 homolog 2, RRM domain, GST-SBP tag (RBFOX2, Homo sapiens, UniProt O43251-10, residues 100-194)
Method: RNA Bind-n-Seq
Molecule type: RNA
Sample: in vitro
Tested at: 365 nM
Notes: natural RNA segment, single round, ends assumed
Reference: no-protein control
Reading: higher = stronger binding
Residues (chain): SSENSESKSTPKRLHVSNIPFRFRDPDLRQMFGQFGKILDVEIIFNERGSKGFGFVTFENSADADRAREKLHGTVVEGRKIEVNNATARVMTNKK
| Oligonucleotide | RBNS enrichment (R) |
| --- | --- |
| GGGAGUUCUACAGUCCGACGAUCUUCUGCCUGGACAUCAUAAAUGGGGACUUGGACCCUGAGGAGAGUCAGGCCACGGUAAGCCCUUCCCAGCUGAGAUAUGGGUGGCAUAAUUUGAGUCUUCUGGCAACAUUUGGAAUUCUCGGGUGCCAA | 1.02 |
| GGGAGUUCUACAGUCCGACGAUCCAGUAGGCUCCCUGCAGUCCUUGGGAACUAUCCAAGCACGAAUCAGCAGAAGCUUGUAGGAUGAGUGUGUCGGGGCUUAAAUACUAGACAGUUCCAAUGAGAUAACACUAUGGAAUUCUCGGGUGCCAA | 0.489 |
| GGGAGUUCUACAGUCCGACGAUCAGAUGCUGAUGUAGCCAGGCCAUGCCGGAAGGAGCAGGGUGAAGCUUCCCCUCUCCCUACAAAUGGAACCUUGUGGAAACAGGAUGCUAAACACCUUCUGAUGGAGCUGUUGGAAUUCUCGGGUGCCAA | 0.26 |
| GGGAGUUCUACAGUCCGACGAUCUGACAGCUAGCUGUCACUGGUGCUACCCCAAAGCUUUCCAAUCUUUUAUGUAUUUUUUGUGAAUGAAACUGUUGCUGUAGGAAAGUCAAGGUUCAUGUAAGAGUAUCGUGUGGAAUUCUCGGGUGCCAA | 3.82 |
| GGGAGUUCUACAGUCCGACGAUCCCGGGACUACCAUGGCCCCCAGGGCUGGCUUCCUCCUUCUGGGUUUCACAGGCUCCUCUGGCCCUGACCCCUCUUGCUCGUUCCCCUUCCUUCCGCAGCUCCUAGUCUCGUGGAAUUCUCGGGUGCCAA | 0.406 |
| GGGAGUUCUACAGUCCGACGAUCACCACUGUACUCCAGCCUGGGCGACAGAGCAAGACUCUGUCUCAAAAAAAGGAAAAAAAAAAAAAGUAAUCUUAGGGUUCAUAGUUAUGAUCCUGUUGUAACUAUCUUCGUGGAAUUCUCGGGUGCCAA | 0.32 |
| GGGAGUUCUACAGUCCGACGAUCUUCGUCAGUUUGCAUUUCUUUACUCCCACAAGGCUCUGCGGGGUCUUGGUGUGAGACAAGGCACAUGCACGGGGUGCUCGGUCCCUCUGUGGGCUGUGCGUGGGUUCACCUGGAAUUCUCGGGUGCCAA | 0.771 |
| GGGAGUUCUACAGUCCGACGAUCAGGUGCCUUGUAUUUUAAAUCUGUGACAAACCAUGGCAAAUUUUUAAAGGGGAAGUAUUAUUAUAAAAUGAAGAAAUAUGUAUUUCUAAAGGCUAUAUUGCUGUAAACUUUGGAAUUCUCGGGUGCCAA | 0.474 |

Block 5
Target: CCNB1, cyclin fold, Cln2 fusion (human)
Method: yeast growth competition, sequencing
Sample: yeast
Notes: strong parent motif
Reference: not given
Reading: higher = stronger binding
Starting sequence: BRCA2 docking peptide (human); PSIKRNLLNEFDR; partner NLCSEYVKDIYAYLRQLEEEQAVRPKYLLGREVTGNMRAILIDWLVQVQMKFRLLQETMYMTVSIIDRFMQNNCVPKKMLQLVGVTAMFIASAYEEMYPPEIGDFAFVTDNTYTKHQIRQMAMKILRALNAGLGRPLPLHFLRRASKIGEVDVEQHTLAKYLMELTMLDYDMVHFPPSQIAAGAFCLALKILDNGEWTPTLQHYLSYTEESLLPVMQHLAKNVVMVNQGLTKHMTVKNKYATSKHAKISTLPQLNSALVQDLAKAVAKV
| Change | normalised enrichment score |
| --- | --- |
| N9F | 1.98 |
| I3S | 0.711 |
| D12G | 1.22 |
| L7W | -0.204 |
| K4A | 3.08 |
| E10I | 0.727 |
| L8I | 1.82 |
| N6W | 0.325 |
| E10Y | 0.788 |
| N6L | 0.413 |
| L8S | 1.38 |
| S2V | 0.547 |
| I3C | 2.03 |
| R13H | 1.53 |
| E10S | 0.0464 |
| I3E | 0.456 |

Some of these lines once more (block 4):
| Oligonucleotide | RBNS enrichment (R) |
| --- | --- |
| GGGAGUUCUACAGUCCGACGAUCCAGUAGGCUCCCUGCAGUCCUUGGGAACUAUCCAAGCACGAAUCAGCAGAAGCUUGUAGGAUGAGUGUGUCGGGGCUUAAAUACUAGACAGUUCCAAUGAGAUAACACUAUGGAAUUCUCGGGUGCCAA | 0.489 |
| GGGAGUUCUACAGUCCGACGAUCUUCUGCCUGGACAUCAUAAAUGGGGACUUGGACCCUGAGGAGAGUCAGGCCACGGUAAGCCCUUCCCAGCUGAGAUAUGGGUGGCAUAAUUUGAGUCUUCUGGCAACAUUUGGAAUUCUCGGGUGCCAA | 1.02 |
| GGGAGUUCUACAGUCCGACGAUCCCGGGACUACCAUGGCCCCCAGGGCUGGCUUCCUCCUUCUGGGUUUCACAGGCUCCUCUGGCCCUGACCCCUCUUGCUCGUUCCCCUUCCUUCCGCAGCUCCUAGUCUCGUGGAAUUCUCGGGUGCCAA | 0.406 |
| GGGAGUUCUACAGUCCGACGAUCUUCGUCAGUUUGCAUUUCUUUACUCCCACAAGGCUCUGCGGGGUCUUGGUGUGAGACAAGGCACAUGCACGGGGUGCUCGGUCCCUCUGUGGGCUGUGCGUGGGUUCACCUGGAAUUCUCGGGUGCCAA | 0.771 |
| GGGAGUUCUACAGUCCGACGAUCAGAUGCUGAUGUAGCCAGGCCAUGCCGGAAGGAGCAGGGUGAAGCUUCCCCUCUCCCUACAAAUGGAACCUUGUGGAAACAGGAUGCUAAACACCUUCUGAUGGAGCUGUUGGAAUUCUCGGGUGCCAA | 0.26 |
| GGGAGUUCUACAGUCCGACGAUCAGGUGCCUUGUAUUUUAAAUCUGUGACAAACCAUGGCAAAUUUUUAAAGGGGAAGUAUUAUUAUAAAAUGAAGAAAUAUGUAUUUCUAAAGGCUAUAUUGCUGUAAACUUUGGAAUUCUCGGGUGCCAA | 0.474 |
| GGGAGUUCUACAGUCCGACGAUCACCACUGUACUCCAGCCUGGGCGACAGAGCAAGACUCUGUCUCAAAAAAAGGAAAAAAAAAAAAAGUAAUCUUAGGGUUCAUAGUUAUGAUCCUGUUGUAACUAUCUUCGUGGAAUUCUCGGGUGCCAA | 0.32 |
| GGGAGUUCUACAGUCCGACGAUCUGACAGCUAGCUGUCACUGGUGCUACCCCAAAGCUUUCCAAUCUUUUAUGUAUUUUUUGUGAAUGAAACUGUUGCUGUAGGAAAGUCAAGGUUCAUGUAAGAGUAUCGUGUGGAAUUCUCGGGUGCCAA | 3.82 |
